Measurements collected from several papers.
Each line is one published result; not all experiments were run side by side. Values joined by “and” are separate records of one study, mostly repeats; a detail may differ.
Target: Aurora kinase C (AURKC, Homo sapiens, UniProt Q9UQB9)

Structure (SMILES)	test	setting	how to read	endpoint	value
Cc1cnc2nc1Nc1cccc(c1)COC/C=C/COCc1cc(ccc1OCCN1CCOCC1)N2	binding	0.1 µM	–	remaining binding	100%
Cc1cccc(O[C@H]2CCC[C@@H](C(C)CNCc3ccncc3)C2)c1 (relative stereo)	cell-free assay	10 µM	–	inhibition	0%
CN1CC[C@@H](COc2cnc(C#N)cc2-c2ccn3nc(NC(=O)C4CC4)cc3c2)C1	enzyme activity, inhibitor	1 µM	–	inhibition	11%
Cc1ccc(-c2c(/C=C(\C#N)C(=O)NC(C)C)n(CCCO)c3ncnc(N)c23)cc1	cell-free assay, competition with immobilised ligand	1 µM	–	remaining binding	71%
CNC(=O)C[C@H](Cc1ccc(C#N)cc1)NC(=O)c1cc(-c2ccc(CN[C@H](C)c3ccc(C)cc3)o2)ccc1Cl	enzyme activity, inhibitor	1 µM	–	activity vs control	103%
NC(=O)C[C@H]1CCc2sc3ncnc(O[C@H]4CC[C@H](N5CCOCC5)CC4)c3c21	enzyme activity, inhibitor	10 µM	–	inhibition	8%
COc1c(Cl)cccc1Nc1c(-c2ccncc2C#C[C@@]2(C)CCCN2C(=O)/C=C/CN(C)C)[nH]c2c1C(=O)NCC2	binding, competition with immobilised ligand	3 µM	–	remaining binding	94%
C=CC(=O)N1CCCC(n2c(=O)c3ncccc3n(Cc3ccc(Oc4ccccc4)cc3)c2=O)C1 (stereo not drawn)	cell-free assay, competition with immobilised ligand	1 µM	–	remaining binding	100%
CCn1cc(C(=O)O)c(=O)c2c(N)c(F)c(NC3CCCCC3)cc21	kinase activity	0.1 µM, together with: ATP at Km	–	inhibition	12.3%
Nc1ncc2c(n1)-c1c([nH]c3ccc(C4=CCOCC4)cc13)CCC2	binding, competition with immobilised ligand	1 µM	–	remaining binding	100%
CN1CCN(Cc2ccc(-c3ccc(CO[C@H]4CCC[C@@H]4NC(=O)c4cc(-c5cnn(C)c5)cnc4N)cc3)cc2)CC1	enzyme activity, inhibitor	0.1 µM	–	inhibition	5%
C=CC(=O)Nc1cccc(-c2cnc3[nH]cc(C(=O)NC(C)(C)C)c3n2)c1	enzyme activity, inhibitor	0.1 µM	–	inhibition	12%
CNC(=O)C1CCN(c2cc(C)c(F)cc2NC(=O)c2ccc(-c3cc(O)ccc3C)c(C)c2)CC1	binding, competition with immobilised ligand	1 µM	–	remaining binding	100%
COCC12C(=O)NC3C4(C(OC)CC1O)C1CC5(O)C(OC)C(O)C(OC(C)=O)(C1C5OC(=O)c1ccccc1)C3(O)C(OC)C24 (stereo not drawn)	kinase activity, inhibitor, ProQinase kinase profiling	25 µM	relative to: control	remaining activity	110% and 98%
COc1ccc(NC(=O)Nc2ccc3c(c2)C(=O)N(C(C)CO)CC(C)C(CN(C)Cc2ccc4c(c2)OCO4)O3)cc1 (stereo not drawn)	kinase activity	0.03 µM	relative to: control	remaining activity	31%
